Assay results of several laboratories.
Lines come from different studies, so protocols differ. ± marks the error that the study gave.
CYP2D6: Cytochrome P450 2D6 (CYP2D6, Homo sapiens, UniProt P10635)
Chain of UniProt P10635 (whole entry, looked up): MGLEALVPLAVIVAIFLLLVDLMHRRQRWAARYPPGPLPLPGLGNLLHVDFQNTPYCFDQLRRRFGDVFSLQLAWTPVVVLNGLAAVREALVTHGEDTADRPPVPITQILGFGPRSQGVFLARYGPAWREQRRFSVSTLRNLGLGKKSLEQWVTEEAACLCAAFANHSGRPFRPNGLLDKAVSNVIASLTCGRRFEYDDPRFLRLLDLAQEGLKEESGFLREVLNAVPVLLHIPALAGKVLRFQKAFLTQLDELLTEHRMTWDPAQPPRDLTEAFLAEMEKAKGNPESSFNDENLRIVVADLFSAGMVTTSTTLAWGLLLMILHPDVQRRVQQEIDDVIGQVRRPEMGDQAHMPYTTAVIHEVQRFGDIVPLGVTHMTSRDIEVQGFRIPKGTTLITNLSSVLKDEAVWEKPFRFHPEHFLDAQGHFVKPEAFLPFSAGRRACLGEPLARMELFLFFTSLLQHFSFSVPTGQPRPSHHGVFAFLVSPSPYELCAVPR
SLCO1B3: Solute carrier organic anion transporter family member 1B3 (SLCO1B3, Homo sapiens, UniProt Q9NPD5)
Chain of UniProt Q9NPD5 (whole entry, unmodified, looked up): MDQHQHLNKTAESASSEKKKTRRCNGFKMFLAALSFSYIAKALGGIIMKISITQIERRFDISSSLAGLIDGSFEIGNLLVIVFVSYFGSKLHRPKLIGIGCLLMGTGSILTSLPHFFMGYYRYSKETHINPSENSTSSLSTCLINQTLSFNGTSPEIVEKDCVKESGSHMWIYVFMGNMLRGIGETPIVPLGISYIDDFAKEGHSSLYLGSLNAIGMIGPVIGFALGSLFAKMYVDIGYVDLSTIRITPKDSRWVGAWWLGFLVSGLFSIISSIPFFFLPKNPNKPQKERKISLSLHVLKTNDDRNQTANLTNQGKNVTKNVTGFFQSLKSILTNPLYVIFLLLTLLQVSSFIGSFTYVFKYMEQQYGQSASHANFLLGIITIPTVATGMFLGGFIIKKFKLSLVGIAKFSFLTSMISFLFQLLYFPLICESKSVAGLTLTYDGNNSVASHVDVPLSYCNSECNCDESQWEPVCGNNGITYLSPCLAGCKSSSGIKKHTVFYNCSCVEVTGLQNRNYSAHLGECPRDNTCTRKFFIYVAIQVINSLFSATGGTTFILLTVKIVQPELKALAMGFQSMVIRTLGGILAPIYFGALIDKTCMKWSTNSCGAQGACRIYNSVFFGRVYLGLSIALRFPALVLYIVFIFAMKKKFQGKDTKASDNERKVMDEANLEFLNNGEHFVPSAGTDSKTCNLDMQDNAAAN
NR1I2: Nuclear receptor subfamily 1 group I member 2 (NR1I2, Homo sapiens, UniProt O75469)
Chain of UniProt O75469 (whole entry, looked up): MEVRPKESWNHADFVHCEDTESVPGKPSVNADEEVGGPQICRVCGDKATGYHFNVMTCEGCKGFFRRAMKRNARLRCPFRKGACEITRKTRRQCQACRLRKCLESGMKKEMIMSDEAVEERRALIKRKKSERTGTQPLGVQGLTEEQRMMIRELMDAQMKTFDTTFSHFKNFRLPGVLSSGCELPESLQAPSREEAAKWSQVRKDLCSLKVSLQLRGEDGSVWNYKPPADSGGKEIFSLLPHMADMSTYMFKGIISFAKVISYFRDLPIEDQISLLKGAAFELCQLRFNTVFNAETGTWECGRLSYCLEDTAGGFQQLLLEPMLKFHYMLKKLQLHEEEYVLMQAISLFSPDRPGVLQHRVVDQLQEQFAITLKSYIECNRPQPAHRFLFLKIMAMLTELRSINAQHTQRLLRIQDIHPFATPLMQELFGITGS
CYP2C9: Cytochrome P450 2C9 (CYP2C9, Homo sapiens, UniProt P11712)
Chain of UniProt P11712 (whole entry, looked up): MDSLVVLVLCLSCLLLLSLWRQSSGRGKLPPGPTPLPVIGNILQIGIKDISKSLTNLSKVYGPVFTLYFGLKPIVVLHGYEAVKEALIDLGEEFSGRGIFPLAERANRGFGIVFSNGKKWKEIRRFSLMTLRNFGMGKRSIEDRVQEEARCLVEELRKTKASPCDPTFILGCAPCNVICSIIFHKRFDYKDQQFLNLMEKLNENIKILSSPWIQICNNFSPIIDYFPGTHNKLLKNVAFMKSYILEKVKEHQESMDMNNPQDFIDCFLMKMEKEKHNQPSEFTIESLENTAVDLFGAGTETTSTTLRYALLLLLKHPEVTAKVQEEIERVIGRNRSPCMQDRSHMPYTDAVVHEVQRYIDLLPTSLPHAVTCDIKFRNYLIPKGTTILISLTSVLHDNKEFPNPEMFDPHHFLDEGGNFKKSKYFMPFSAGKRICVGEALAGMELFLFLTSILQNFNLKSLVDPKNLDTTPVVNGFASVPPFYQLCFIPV
Chain of UniProt P27338 (whole entry, looked up): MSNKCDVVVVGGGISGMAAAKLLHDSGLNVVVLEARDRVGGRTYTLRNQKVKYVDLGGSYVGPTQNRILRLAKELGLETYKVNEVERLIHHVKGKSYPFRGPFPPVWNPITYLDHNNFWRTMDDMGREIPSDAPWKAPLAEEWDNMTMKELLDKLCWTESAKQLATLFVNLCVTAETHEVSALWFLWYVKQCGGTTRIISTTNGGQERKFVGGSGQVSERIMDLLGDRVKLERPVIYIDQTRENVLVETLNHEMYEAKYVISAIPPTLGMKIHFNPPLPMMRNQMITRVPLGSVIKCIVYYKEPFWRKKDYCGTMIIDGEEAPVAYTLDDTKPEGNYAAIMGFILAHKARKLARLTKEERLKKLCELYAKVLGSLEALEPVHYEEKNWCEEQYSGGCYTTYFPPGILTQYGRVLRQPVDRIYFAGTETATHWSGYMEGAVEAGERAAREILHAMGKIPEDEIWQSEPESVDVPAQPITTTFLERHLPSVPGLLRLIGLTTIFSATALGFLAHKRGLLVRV
Chain of UniProt Q8VCR2 (whole entry, looked up): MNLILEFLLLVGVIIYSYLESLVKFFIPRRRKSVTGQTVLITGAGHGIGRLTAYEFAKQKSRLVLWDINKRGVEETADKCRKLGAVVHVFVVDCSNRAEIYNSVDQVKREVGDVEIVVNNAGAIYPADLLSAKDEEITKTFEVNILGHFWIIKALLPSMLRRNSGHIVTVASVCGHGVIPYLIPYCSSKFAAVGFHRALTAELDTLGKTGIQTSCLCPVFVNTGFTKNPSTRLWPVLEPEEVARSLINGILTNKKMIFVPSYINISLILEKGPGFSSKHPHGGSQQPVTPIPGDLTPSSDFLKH
Chain of UniProt P51589 (whole entry, looked up): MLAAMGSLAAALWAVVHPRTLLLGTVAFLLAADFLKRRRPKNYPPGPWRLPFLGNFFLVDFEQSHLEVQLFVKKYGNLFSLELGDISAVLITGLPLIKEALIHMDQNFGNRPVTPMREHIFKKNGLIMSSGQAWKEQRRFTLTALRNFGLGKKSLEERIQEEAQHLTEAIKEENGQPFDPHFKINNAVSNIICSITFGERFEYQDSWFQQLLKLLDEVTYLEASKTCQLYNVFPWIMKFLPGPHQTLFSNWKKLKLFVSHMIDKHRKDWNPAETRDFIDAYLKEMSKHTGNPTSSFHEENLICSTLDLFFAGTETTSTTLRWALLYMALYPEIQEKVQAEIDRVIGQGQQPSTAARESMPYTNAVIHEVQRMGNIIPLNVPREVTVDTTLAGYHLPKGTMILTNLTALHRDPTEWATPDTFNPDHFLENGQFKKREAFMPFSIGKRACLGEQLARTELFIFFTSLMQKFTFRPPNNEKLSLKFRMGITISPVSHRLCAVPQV
Chain of UniProt P19224 (whole entry, looked up): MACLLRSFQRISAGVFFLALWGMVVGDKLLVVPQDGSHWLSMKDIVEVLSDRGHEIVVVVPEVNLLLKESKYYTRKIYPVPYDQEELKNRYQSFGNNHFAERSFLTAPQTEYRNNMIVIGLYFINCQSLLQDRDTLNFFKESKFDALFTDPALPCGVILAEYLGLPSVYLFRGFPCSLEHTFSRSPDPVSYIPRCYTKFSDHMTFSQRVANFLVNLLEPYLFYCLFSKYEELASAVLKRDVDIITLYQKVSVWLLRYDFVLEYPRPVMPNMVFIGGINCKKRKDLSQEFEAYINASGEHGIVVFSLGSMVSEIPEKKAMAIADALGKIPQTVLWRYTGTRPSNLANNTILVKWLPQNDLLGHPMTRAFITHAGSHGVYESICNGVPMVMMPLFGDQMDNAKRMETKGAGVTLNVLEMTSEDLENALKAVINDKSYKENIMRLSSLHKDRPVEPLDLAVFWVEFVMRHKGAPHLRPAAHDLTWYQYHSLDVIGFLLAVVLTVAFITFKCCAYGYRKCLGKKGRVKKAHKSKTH
Chain of UniProt Q9NSA0 (whole entry, looked up): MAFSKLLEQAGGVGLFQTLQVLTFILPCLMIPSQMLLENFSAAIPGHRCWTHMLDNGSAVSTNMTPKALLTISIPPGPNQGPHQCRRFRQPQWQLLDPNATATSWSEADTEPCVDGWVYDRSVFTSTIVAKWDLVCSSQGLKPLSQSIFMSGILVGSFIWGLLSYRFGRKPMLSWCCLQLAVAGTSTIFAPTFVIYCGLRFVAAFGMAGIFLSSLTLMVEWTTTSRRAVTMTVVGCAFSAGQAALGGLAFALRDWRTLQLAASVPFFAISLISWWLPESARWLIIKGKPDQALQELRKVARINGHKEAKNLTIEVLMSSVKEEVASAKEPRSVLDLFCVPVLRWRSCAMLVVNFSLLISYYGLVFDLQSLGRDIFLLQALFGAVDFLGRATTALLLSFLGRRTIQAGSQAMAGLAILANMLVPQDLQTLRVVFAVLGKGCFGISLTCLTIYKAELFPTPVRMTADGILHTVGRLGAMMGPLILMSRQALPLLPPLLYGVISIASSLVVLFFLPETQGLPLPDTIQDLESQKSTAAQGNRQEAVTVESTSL
Chain of UniProt P02754 (whole entry, looked up): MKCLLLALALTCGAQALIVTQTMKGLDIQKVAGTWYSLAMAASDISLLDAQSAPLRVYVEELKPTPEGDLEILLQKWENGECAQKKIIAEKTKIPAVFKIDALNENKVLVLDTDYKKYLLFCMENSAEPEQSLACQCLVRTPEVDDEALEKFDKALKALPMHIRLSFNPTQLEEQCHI

Cc1c(-c2ccc(N3CCc4cccc(C(=O)Nc5nc6ccccc6s5)c4C3)nc2C(=O)O)cnn1CC12CC3(C)CC(C)(C1)CC(OCCNCC[C@H](O)CO)(C3)C2  cardiac output change (anaesthetised male beagle dogs; intravenous infusion, 0.3 mg/kg/min, 45 min; relative to: vehicle): -31%
C[C@]1(c2nc3c(C(N)=O)cccc3[nH]2)CCCN1  contribution to metabolism (CYP2D6; human liver microsomes; 100 µmol/L, 30 min): ~72%
NCc1cc2c(cc1F)C(=O)N(C1CCC(=O)NC1=O)C2 (stereo not shown)  concentration (MAOB (Homo sapiens, UniProt P27338); substrate, LC-MS/MS; recombinant enzyme; 10 µM, 0 h, pH 7.4): 11.3 µM
CNC(=O)c1cc(Oc2ccc(NC(=O)Nc3ccc(Cl)c(C(F)(F)F)c3)c(F)c2)ccn1  Km (SLCO1B3; substrate, uptake; HEK293-A stably expressing SLCO1B3; 2 min): 67 ± 51.5 µM
[11CH3]Oc1cccc(CCc2cc(O)c(=O)[nH]n2)c1  increase in brain uptake (Abcb1a (Mus musculus, UniProt P21447); CD-1 mice, brain; 30 min, together with: cyclosporine; relative to: without cyclosporine): no effect
CN(C(=O)n1cnc(-c2ccc[n+]([O-])c2)c1)C1CCCCC1  time-dependent inhibition (CYP2D6; inhibitor; pooled human liver microsomes; concentration not given, 30 min pre-incubation, without cofactor): no effect
C[C@]12CC[C@@H]3c4ccc(OS(=O)(=O)O)cc4CC[C@H]3[C@@H]1CCC2=O  uptake velocity (SLC22A11 (Homo sapiens, UniProt Q9NSA0); HEK293 control cells): 0.9 ± 0.1 pmol/min/mg protein
CC(C)CCCCC(=O)N[C@@H](CCN)C(=O)N[C@H](C(=O)N[C@@H](CCN)C(=O)N[C@H]1CCNC(=O)[C@H]([C@@H](C)O)NC(=O)[C@H](CCN)NC(=O)[C@H](CCN)NC(=O)[C@H](CC(C)C)NC(=O)[C@@H](Cc2ccccc2)NC(=O)[C@H](CCN)NC1=O)[C@@H](C)O  fu (plasma proteins; equilibrium dialysis; human, mild renal insufficiency, plasma; intravenous, 0.75 mg/kg, 4 h, 37 °C): 10.9%
C[C@H](O)c1cnc(NS(=O)(=O)c2ccc(Cl)c(Cl)c2)nc1  fraction metabolized (17-beta-hydroxysteroid dehydrogenase 13 (Mus musculus, UniProt Q8VCR2); substrate; mouse, wild type vs knockout): < 0.5
Cn1c(=O)c2c(ncn2C)n(C)c1=O  CL/F (Cytochrome P450 1A2 (CYP1A2, Homo sapiens, UniProt P05177); human, plasma; oral, 200 mg, day 1, alone, arithmetic mean): 6.86 L/h
Cc1cc(Nc2ncnc3ccc(NC4=NC(C)(CO)CO4)cc23)ccc1Oc1ccn2ncnc2c1 (stereo not shown)  AUC(0-inf) (geometric mean) (Cytochrome P450 3A4 (CYP3A4, Homo sapiens, UniProt P08684); human, plasma; tucatinib, day 6, together with: itraconazole): 801 ng·h/mL
CC(C)Nc1ccnc(Nc2cccc(-c3ccccc3)c2)n1  Papp (A-B) (P-glycoprotein (human MDR1); MDR1-MDCKII; 10 µM, 1 h, pH 7.4): 0.619 ± 0.064 ×10⁻⁶ cm/s
CCCCc1oc2ccc(NS(C)(=O)=O)cc2c1C(=O)c1ccc(OCCCN(CCCC)CCCC)cc1  kinact/KI (Cytochrome P450 2J2 (CYP2J2, Homo sapiens, UniProt P51589); inactivator; together with: astemizole substrate): 8330 M⁻¹ s⁻¹
C=C1C(=O)O[C@@H]2C[C@@]3(C)CCCC(=C)[C@@H]3C[C@H]12  activation (NR1I2; reporter gene, agonist, Gal4 hybrid reporter; HEK293T transiently transfected; 10 µM, 16 h, 0.1% DMSO; relative to: vehicle): 3.07 fold
Cn1cc(-c2ccc(-c3cncc(Cl)c3N3CCC4(CCNC4=O)CC3)cc2)cn1  log2 fold change (COLO 205; gene expression, microarray, measured: VIL1 mRNA; concentration not given, 6 h; relative to: untreated cells): -1.88
COc1cccc2c(Nc3ccc4[nH]c(C(=O)N/N=C/c5ccc(SC)cc5)cc4c3)cc(C)nc12  activation (NR1I2; reporter gene, agonist, Gal4 hybrid reporter; HEK293T transiently transfected; 3 µM, 16 h, 0.1% DMSO; relative to: vehicle): 0.99 ± 0.09 fold
CC(C)Nc1ccnc(Nc2ccccc2-c2ccccc2)n1  efflux ratio (P-glycoprotein (human MDR1); MDR1-MDCKII; 10 µM, 1 h, pH 7.4; relative to: B-A over A-B): 0.82
C[C@]12C[C@H](O)[C@H]3[C@@H](CCC4=CC(=O)CC[C@@]43C)[C@@H]1CC[C@@H]2C(=O)CO  18-hydroxylation coupling efficiency (CYP11B1 (Homo sapiens, UniProt P15538); substrate; 100 µM, phospholipid vesicles): 22.6 ± 5.6%
CC1=C(/C=C/C(C)=C/C=C/C(C)=C/C=C/C=C(C)/C=C/C=C(C)/C=C/C2=C(C)CCCC2(C)C)C(C)(C)CCC1  zeta potential (Beta-lactoglobulin (LGB, Bos taurus, UniProt P02754); protein-carotenoid complex; 298 K): -15.9 ± 1.12 mV
COc1cc(OCCCCCCCC(=O)N[C@H](C(=O)N2C[C@H](O)C[C@H]2C(=O)NCc2ccc(-c3scnc3C)cc2)C(C)(C)C)c(C)cc1-n1nnc(S(=O)(=O)c2ccc(C(C)(C)C)cc2)c1C  degradation (NR1I2; degrader, HiBiT; SNU-C4 HiBiT-PXR knock-in cells; 24 h): inactive
N#C[C@H](C[C@@H]1CCCNC1=O)NC(=O)[C@H](CC1CC1)NC(=O)c1cc2cccc(Cl)c2[nH]1  intrinsic clearance (CYP2C9; NADPH metabolic stability; 2 µM, pH 7.4, 100 pmol/mL enzyme): 0.06 µL/min/pmol
CC(C)Nc1ccnc(Nc2cccc(-c3ccccn3)c2)n1  Papp (A-B) (P-glycoprotein (human MDR1); MDR1-MDCKII; 10 µM, 1 h, pH 7.4): 0.39 ± 0.222 ×10⁻⁶ cm/s
Cc1oc2ccccc2c1Cc1cc(I)c(OCC(=O)O)c(I)c1  activation rate acceleration (KCNH2 (Homo sapiens, UniProt Q12809); potassium current, whole-cell patch clamp; HEK293 expressing hERG1; concentration not given; relative to: control): ~4 fold
c1ccc(-c2cccc(Nc3nccc(NC4CCCCC4)n3)c2)nc1  Papp (A-B) (P-glycoprotein (human MDR1); MDR1-MDCKII; 10 µM, 1 h, pH 7.4): 15.7 ± 8.9 ×10⁻⁶ cm/s
CCc1cc(/C(C)=N/OCc2ccc(C3CCCCC3)c(C(F)(F)F)c2)ccc1CN1CC(C(=O)O)C1  CYP2C9-mediated clearance (CYP2C9; population PK; human, CYP2C9*1/*1, plasma): 2.47 L/h
CC(C)n1c(/C=C/C(O)CC(O)CC(=O)O)c(-c2ccc(F)cc2)c2ccccc21 (stereo not shown)  Vmax (SLCO1B3; uptake, substrate; HEK293-A stably expressing SLCO1B3; 2 min): 332 ± 172 pmol/mg protein/min
NC(Cc1cc(I)c(Oc2cc(I)c(O)c(I)c2)c(I)c1)C(=O)O (stereo not shown)  uptake (SLCO1B3; substrate; COS-1 transfected with SLCO1B3; 60 min, 37 °C; relative to: empty vector-transfected cells): increased
Cc1ncc(C[n+]2csc(CCOP(=O)(O)O)c2C)c(N)n1  log2 fold change (binding, MIDAS equilibrium dialysis LC-MS; A2AR-BRIL thermostabilized; concentration not given; relative to: no-protein control): -0.0397
O=C(O)COc1cccc(-c2nc(Nc3ccc4[nH]ncc4c3)c3ccccc3n2)c1  IC50 (UGT1A6 (Homo sapiens, UniProt P19224); enzyme activity, inhibitor; recombinant microsomes; together with: diclofenac): 94.7 µM
CC[C@H](C)CCCCC(=O)N[C@@H](CCN)C(=O)N[C@H](C(=O)N[C@@H](CCN)C(=O)N[C@H]1CCNC(=O)[C@H]([C@@H](C)O)NC(=O)[C@H](CCN)NC(=O)[C@H](CCN)NC(=O)[C@H](CC(C)C)NC(=O)[C@@H](Cc2ccccc2)NC(=O)[C@H](CCN)NC1=O)[C@@H](C)O  fu (plasma proteins; equilibrium dialysis; human, long-term intermittent hemodialysis, plasma; intravenous, 0.75 mg/kg, 4 h, 37 °C): 0.054
c1ccc(-c2cccc(Nc3nccc(NC4CCCCC4)n3)c2)cc1  Papp (A-B) (P-glycoprotein (human MDR1); MDR1-MDCKII; 10 µM, 1 h, pH 7.4): 0.004 ± 0.001 ×10⁻⁶ cm/s
N#Cc1cc(NC(=O)[C@H]2c3ccccc3C(=O)N(CC(F)(F)F)[C@@H]2c2cccnc2)ccc1F  reporter gene (human PXR and CAR; activator; HepG2): no effect
N[C@H](CNC(=O)c1ccc(-c2ccccc2Br)s1)C(=O)O  apparent permeability (P-glycoprotein (human MDR1); MDCK canine MDR1 knock-out, human MDR1 transfected; 3 µM, pH 7.4): < 10 ×10⁻⁶ cm/s
CC(C)c1nc(N(C)S(C)(=O)=O)nc(-c2ccc(F)cc2)c1/C=C/[C@@H](O)C[C@@H](O)CC(=O)O  Vmax (SLCO1B3 (Homo sapiens, UniProt Q9NPD5, M233I/S112A); uptake, substrate; HEK293-A stably expressing SLCO1B3; 2 min): 42.5 ± 2.67 pmol/mg protein/min
CC(C)Nc1ccnc(Nc2cccc(-c3ccncc3)c2)n1  Papp (B-A) (P-glycoprotein (human MDR1); MDR1-MDCKII; 10 µM, 1 h, pH 7.4): 53.8 ± 25.2 ×10⁻⁶ cm/s
CNC(=O)c1cc(Oc2ccc(NC(=O)Nc3ccc(Cl)c(C(F)(F)F)c3)cc2)ccn1  Vmax (SLCO1B3 (Homo sapiens, UniProt Q9NPD5, M233I); uptake, substrate; HEK293-A stably expressing SLCO1B3; 2 min): 414 ± 220 pmol/mg protein/min
COc1cccc(-c2cccc(Nc3nccc(NC(C)C)n3)c2)c1  Papp (A-B) (P-glycoprotein (human MDR1); MDR1-MDCKII; 10 µM, 1 h, pH 7.4): 0.369 ± 0.049 ×10⁻⁶ cm/s
CC[C@H]1[C@@H](O)[C@@H]2[C@H](CC[C@]3(C)[C@@H]([C@H](C)CCNC(=O)NS(=O)(=O)c4ccc(C(C)(C)C)cc4)CC[C@@H]23)[C@@]2(C)CC[C@@H](O)C[C@@H]12  half-life (ABCB1 (Homo sapiens, UniProt P08183); human, plasma; dose not given, mean, together with: quinidine): 11.4 h
COC(=O)c1cccc(-c2cccc(Nc3nccc(NC4CCCCC4)n3)c2)c1  efflux ratio (P-glycoprotein (human MDR1); MDR1-MDCKII; 10 µM, 1 h, pH 7.4; relative to: B-A over A-B): 5.23
CN(C)CC(=O)O  log2 fold change (binding, MIDAS equilibrium dialysis LC-MS; A2AR-BRIL thermostabilized; concentration not given; relative to: no-protein control): -0.122

Some of these lines once more:
COc1cccc2c(Nc3ccc4[nH]c(C(=O)N/N=C/c5ccc(SC)cc5)cc4c3)cc(C)nc12  activation (NR1I2; reporter gene, agonist, Gal4 hybrid reporter; HEK293T transiently transfected; 3 µM, 16 h, 0.1% DMSO; relative to: vehicle): 0.99 ± 0.09 fold
CC(C)Nc1ccnc(Nc2ccccc2-c2ccccc2)n1  efflux ratio (P-glycoprotein (human MDR1); MDR1-MDCKII; 10 µM, 1 h, pH 7.4; relative to: B-A over A-B): 0.82
